# Published values from different studies.
# Every numbered part comes from another study and shows a few of its results, in no order.

# Sample 1 — technique: RNA Bind-n-Seq; molecule type: RNA; medium: in vitro; tested at: 365 nM; relative to: no-protein control; reading: higher = stronger binding
# Target: RNA binding protein fox-1 homolog 2, RRM domain, GST-SBP tag (RBFOX2, Homo sapiens, UniProt O43251-10, residues 100-194)
# Notes: natural RNA segment, single round, ends assumed
Strand,RBNS enrichment (R)
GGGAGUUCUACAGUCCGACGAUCAUUAUUAAAGCUGUGUUAUUUUCCACAGAAUAUAGAAUAUAUAUUUUUUUCGUGUGUGUUUUUGUUAACUACGCUACAGAUAUUGAAUGCACCUUGAGAUAAUUUAGUGUUGGAAUUCUCGGGUGCCAA,1.91
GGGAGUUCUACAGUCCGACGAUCAUUCACUGAAAUCCACAUGAUUCAGUUCUAGCUCUGGAUUACCUCAGUUGACCUUUGUGGAGGUUUUAUCUAUAGAGUAGUUCUUGCCUUGUCAUAGACCUUAUUAGGGUUGGAAUUCUCGGGUGCCAA,1.38
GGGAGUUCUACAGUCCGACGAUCUGAGAGCAGAGAGUUUGGGAGGGGGUGAAGAGAAAACAACAUCACCAAAUAGUGAUAUAUAAGAGAAAAUCUGUGCUUCAGAGUUUGAUCAGGGCCAUCUCUCCCAACUCUGGAAUUCUCGGGUGCCAA,0.532
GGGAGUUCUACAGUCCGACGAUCUGGGCCUGGAGUGUCCCUGCUCCAGCCCUGCCAGGGACAGGUUUCUCCCUGGAUACUCUUGGCCCACCGCAGAUCUGUAGCCAGUCAGAGGAGGAGGAGAAGGAGCCCCUUGGAAUUCUCGGGUGCCAA,0.478
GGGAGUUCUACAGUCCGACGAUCCCCAUCUCUGUGGCCCUCUGAAGCCCCAGCCCCCAUGCAUCAGCCUCUGGCACAUUUCCUCUCCUGCCUCUGCUUGAAAAGGAAACCAGAAGCCGAACAAGUGAGAGUAAUGGAAUUCUCGGGUGCCAA,0.745
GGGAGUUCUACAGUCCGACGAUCCCAGAAUUUUCUUGAUUGUUACUUUCAGUGAUAUUCUUUAUAUUGGGUACAGGAGAAGUUUGGUGUUUGGUAGGUUUUUCAACAUUAGUUUUUGAGACUAGUUUACCUCUUGGAAUUCUCGGGUGCCAA,0.428
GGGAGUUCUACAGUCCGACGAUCUGAGGAGGUUUAGGUGAAGUUGUGUUUGUGAACUCGGAGUUCUUCUCUGUAUUUGCCCAGGAUGGAGCACUCUGUCCCUGUCACAGGUGUGGUGAUUCCUGAGACUGGCAUGGAAUUCUCGGGUGCCAA,1.88
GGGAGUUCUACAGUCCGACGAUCCCCUCAGCUACUCCUUGUUUUAAAGUUCAGCUCUUUGAGUAACUUCUUCAAUUUCUUUCAGGACACUUGGGUUGAAUUCAGUAAGUUUCCUCUGAAGCACCCUGAAGGGUUGGAAUUCUCGGGUGCCAA,0.885
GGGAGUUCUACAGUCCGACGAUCUUUGGGUAGACAGUCUAAUUCAGUCCAAUUUUAAUCUGCAUUAAAAUAUGCAAUGCUAGACAAAGAUUUUCAAAAUAAAAAGCUAUUAUUUCAGAAAUUAUUUUAAAAGAUGGAAUUCUCGGGUGCCAA,0.521
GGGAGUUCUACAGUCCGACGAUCUUGAGUUUUUGCAGUUCAGUAUCCCUCUGUCUAUUCACACUUCGUGUUAGUGGUAACUCAGUUUGUCUUUAAAUAGUUACAGAAGGGAUACGUCAUUUGUUAAUGCUUUUUGGAAUUCUCGGGUGCCAA,0.495
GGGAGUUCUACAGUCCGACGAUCCAAUGAUGCCUGUAAAUAUGAAAAUGUGCCUGUAAGAGUAACAGGUAUCGCUGGGCAGUGGUGGCACACGCCUUUAAUCCCAGCAAUUGGGAGGCAGAGGCAGGUGGAUUUGGAAUUCUCGGGUGCCAA,1.44
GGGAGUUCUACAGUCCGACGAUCUGUGGUAGAGUCUGGGACCAACUCAAAAACGGAACAAGGAGUGAUGAUGUAUGAACACAAAACCCAAUAAAAAUCUUUGAAUAGGAGCCUGGAAGCUCAAGAAGAAAAUGUGGAAUUCUCGGGUGCCAA,0.961

# Sample 2 — technique: protein-binding microarray; molecule type: double-stranded DNA, one strand shown; medium: in vitro; tested at: 250 nM; notes: 60-bp whole probe; with: salmon DNA 0.4 mg/ml; relative to: random background probes; reading: higher = stronger binding; shared flanks, not repeated: GCCTAGCAC … GTCTTGATTCGCTTGACGCTGCTG
# Target: Interferon regulatory factor 7, full length, phosphomimetic (IRF7, Homo sapiens, UniProt Q92985, residues 1-503, S101K/S471D/S472D/S475D/S476D/S477D/S483D/S484D/S487D)
# Target sequence (chain): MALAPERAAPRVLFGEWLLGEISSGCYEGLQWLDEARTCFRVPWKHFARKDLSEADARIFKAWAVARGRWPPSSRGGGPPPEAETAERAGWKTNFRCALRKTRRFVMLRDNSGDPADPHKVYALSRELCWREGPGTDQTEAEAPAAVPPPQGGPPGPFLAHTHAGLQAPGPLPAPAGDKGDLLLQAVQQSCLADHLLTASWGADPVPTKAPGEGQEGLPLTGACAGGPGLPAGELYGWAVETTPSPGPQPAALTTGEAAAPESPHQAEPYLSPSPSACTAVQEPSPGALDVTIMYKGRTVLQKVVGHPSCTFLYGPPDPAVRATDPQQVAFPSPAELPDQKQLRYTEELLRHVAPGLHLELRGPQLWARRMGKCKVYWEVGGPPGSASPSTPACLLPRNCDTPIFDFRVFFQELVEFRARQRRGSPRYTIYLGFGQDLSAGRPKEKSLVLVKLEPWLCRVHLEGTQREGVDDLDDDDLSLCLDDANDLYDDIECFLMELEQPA
Strand,log fluorescence [z-score]
TTAGGTATCGCCACTGGGTTAGTGCTA,-0.528
TGGGTTTTCAGCTGTTTTTCTGTGCTA,0.154
TTAGGACTTGGTTTCGGTTAGTGCTAG,9.41
TTTGATTTCGGGTTTCGATTAGTGCTA,7.82
TCATTTTTCCCTATTATACTGTGCTAG,2.61
TTAGCACTGGGGTATCGATTAGTGCTA,-0.241
TTCGGTATCCTTTTCCTTTAGTGCTAG,1.9
GACGGACTGCTTATCCTTACGTGCTAG,-0.538
TTAGGATTCGGGACTGGGTTAGTGCTA,0.449
TTAAGTTTCGGGTTTCGGTTAGTGCTA,13
GCTCATTTTTTTTGCAAGCTGTGCTAG,0.811
TTAGGACGGGGGACTGGGTTAGTGCTA,2.14
GACGGTTCCCATTTCCTGACGTGCTAG,2.91
GACGGACGGGACACTGGGGACGTGCTA,-0.69
TCAACTTTCCACTTGTCACTGTGCTAG,1.61
GGGCCTAGCCATTATGAGTCTGTGCTA,-0.378
GACGGTATCGACTTTCGGGAAGTGCTA,1.3
GACGATTTCAGTTCAGAGACGTGCTAG,0.419
GACGGACTGGACTTTCTGGACGTGCTA,-0.956
TTAGGACTGCTTCTCCTTTAGTGCTAG,0.656
CTCTGCTTCTGTATGGGCATGTGCTAG,0.154

# Sample 3 — technique: universal PBM; molecule type: double-stranded DNA, one strand shown; medium: in vitro; tested at: not given; reading: higher = stronger binding
# Target: Sal-like protein 4, full length isoform B (SALL4, Homo sapiens, UniProt Q9UJQ4-2, residues 1-616)
# Notes: 8-mer, flanks averaged, mean of replicates
Strand,E-score
AGGTACGC,-0.18
CACAAGCA,-0.0372
ATTTATAC,0.3
TAGGGCAA,-0.0292
AGGTCCGA,-0.101
CATAAGAC,0.221
GAATAAGC,0.0481
CAACTCCG,-0.262
ATTCGCCA,-0.0418
CTCTCACA,0.0862
ATCGAGGG,-0.154
AGGCTCAT,-0.128
CAAACCGG,-0.156
ATTAAATA,0.426
GCCTGCGA,-0.184
CAATCAAG,0.0203
GGGGCCCA,-0.362
CATCGTTC,-0.161
AAACTCGT,0.0389
ACTAATAC,0.185

# Sample 4 — technique: protein-binding microarray; molecule type: double-stranded DNA, one strand shown; medium: in vitro; tested at: not given; reading: higher = stronger binding
# Target: Transcriptional repressor CTCF (CTCF, Homo sapiens, UniProt P49711, residues 1-727, full length assumed)
# Notes: k-mer, scored over probes, only values ≥0.25
# Construct (chain): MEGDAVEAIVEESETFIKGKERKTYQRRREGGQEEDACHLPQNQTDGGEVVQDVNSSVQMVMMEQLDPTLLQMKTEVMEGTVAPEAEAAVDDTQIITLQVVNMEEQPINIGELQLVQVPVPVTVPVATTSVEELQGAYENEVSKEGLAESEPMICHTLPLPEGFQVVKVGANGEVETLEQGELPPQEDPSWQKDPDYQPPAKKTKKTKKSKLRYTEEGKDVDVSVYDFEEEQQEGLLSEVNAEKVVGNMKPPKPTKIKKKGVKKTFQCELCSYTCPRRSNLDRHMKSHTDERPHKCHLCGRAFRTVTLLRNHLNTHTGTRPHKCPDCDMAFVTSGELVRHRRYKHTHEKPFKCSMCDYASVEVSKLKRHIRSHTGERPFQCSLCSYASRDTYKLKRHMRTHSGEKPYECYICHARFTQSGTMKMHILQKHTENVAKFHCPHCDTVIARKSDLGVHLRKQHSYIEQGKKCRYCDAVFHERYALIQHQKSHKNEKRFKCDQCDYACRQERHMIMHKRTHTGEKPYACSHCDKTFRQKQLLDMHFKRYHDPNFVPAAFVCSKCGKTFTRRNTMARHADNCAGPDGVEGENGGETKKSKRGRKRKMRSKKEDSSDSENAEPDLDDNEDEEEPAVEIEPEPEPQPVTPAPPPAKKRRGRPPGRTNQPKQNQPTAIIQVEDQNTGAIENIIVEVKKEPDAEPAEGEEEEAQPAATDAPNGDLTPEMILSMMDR
Strand,E-score
ACTATACT,0.256
AAAAACAA,0.324
TACATAAA,0.297
CAGTAAAA,0.29
ATTTACGG,0.328
CAATTTTA,0.274
ATATGTTG,0.262
ATTATCAC,0.316
GTTGATTA,0.27
AGGCGCAT,0.285
GCGAAAAA,0.254
AACGTGCG,0.254
CGCGTAAA,0.278
AATTGTAT,0.262
ATACTATA,0.317
CGGCGCAC,0.276
CATGCGCA,0.386
TATCTTAA,0.278
ACCACATG,0.318
CAATACAA,0.309
